Measurements collected from several papers.
Parts stem from different laboratories: compare values within a part only. “And” joins repeats or separate records; there may be more than shown.
Chain of UniProt O75676 (whole entry, looked up): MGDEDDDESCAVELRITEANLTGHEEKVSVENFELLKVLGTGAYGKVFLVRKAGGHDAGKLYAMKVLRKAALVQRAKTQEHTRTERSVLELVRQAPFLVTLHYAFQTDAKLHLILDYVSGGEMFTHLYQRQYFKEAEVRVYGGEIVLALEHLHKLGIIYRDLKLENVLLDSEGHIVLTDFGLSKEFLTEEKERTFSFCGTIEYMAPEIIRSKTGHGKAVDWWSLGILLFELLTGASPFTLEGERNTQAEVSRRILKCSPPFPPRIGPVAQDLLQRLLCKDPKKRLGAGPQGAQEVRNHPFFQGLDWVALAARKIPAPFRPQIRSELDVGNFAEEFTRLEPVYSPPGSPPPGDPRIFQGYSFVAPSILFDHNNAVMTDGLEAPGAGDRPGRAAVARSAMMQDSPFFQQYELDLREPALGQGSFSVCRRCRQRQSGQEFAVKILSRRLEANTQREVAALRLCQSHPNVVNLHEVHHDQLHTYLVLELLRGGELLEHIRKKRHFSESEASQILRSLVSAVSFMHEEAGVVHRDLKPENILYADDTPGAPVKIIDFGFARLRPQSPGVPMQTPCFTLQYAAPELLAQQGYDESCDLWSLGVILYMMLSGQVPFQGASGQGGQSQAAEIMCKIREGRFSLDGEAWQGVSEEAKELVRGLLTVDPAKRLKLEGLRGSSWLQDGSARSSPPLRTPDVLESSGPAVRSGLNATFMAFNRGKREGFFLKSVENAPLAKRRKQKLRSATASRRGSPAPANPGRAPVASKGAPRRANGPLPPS
Chain of UniProt O94768 (whole entry, looked up): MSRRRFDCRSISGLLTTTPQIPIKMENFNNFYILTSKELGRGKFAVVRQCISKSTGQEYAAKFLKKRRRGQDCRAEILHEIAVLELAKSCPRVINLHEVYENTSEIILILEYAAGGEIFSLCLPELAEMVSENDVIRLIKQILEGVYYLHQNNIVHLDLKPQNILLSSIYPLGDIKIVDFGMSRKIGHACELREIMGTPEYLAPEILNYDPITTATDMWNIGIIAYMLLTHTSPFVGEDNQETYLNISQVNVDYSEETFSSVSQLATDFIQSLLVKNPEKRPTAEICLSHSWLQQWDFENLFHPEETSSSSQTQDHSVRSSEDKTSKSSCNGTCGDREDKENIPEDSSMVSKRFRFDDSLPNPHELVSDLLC
Chain of UniProt Q96GD4 (whole entry, looked up): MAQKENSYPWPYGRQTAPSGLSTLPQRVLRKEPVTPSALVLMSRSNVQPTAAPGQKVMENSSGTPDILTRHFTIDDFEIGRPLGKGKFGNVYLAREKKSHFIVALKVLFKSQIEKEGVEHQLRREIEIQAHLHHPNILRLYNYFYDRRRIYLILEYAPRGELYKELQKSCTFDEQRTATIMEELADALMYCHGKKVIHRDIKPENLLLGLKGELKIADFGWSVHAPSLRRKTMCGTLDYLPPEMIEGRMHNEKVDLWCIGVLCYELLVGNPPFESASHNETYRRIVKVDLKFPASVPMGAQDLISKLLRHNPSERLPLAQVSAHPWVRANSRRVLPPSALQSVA

Study 1 — read-out: thermal unfolding; technique: differential scanning fluorimetry; concentration: 5.5 µM; reading: higher = more unfolded
SMILES: C[C@@H]1CN(c2ccc(-c3cc(C(=O)NCCOCCOCCOCCOCCOCCOCCNC(=O)/C=C/c4[nH]cc(C(=O)N[C@@H](CC(N)=O)c5ccc(F)c(Cl)c5)c4-c4ccc(Cl)cc4F)ccc3F)cc2NC(=O)c2ccc(F)cc2C(F)(F)F)C[C@H](C)N1C
DCAF1: DDB1- and CUL4-associated factor 1 (DCAF1, Homo sapiens, UniProt Q9Y4B6)
Chain of UniProt Q9Y4B6 (whole entry, looked up): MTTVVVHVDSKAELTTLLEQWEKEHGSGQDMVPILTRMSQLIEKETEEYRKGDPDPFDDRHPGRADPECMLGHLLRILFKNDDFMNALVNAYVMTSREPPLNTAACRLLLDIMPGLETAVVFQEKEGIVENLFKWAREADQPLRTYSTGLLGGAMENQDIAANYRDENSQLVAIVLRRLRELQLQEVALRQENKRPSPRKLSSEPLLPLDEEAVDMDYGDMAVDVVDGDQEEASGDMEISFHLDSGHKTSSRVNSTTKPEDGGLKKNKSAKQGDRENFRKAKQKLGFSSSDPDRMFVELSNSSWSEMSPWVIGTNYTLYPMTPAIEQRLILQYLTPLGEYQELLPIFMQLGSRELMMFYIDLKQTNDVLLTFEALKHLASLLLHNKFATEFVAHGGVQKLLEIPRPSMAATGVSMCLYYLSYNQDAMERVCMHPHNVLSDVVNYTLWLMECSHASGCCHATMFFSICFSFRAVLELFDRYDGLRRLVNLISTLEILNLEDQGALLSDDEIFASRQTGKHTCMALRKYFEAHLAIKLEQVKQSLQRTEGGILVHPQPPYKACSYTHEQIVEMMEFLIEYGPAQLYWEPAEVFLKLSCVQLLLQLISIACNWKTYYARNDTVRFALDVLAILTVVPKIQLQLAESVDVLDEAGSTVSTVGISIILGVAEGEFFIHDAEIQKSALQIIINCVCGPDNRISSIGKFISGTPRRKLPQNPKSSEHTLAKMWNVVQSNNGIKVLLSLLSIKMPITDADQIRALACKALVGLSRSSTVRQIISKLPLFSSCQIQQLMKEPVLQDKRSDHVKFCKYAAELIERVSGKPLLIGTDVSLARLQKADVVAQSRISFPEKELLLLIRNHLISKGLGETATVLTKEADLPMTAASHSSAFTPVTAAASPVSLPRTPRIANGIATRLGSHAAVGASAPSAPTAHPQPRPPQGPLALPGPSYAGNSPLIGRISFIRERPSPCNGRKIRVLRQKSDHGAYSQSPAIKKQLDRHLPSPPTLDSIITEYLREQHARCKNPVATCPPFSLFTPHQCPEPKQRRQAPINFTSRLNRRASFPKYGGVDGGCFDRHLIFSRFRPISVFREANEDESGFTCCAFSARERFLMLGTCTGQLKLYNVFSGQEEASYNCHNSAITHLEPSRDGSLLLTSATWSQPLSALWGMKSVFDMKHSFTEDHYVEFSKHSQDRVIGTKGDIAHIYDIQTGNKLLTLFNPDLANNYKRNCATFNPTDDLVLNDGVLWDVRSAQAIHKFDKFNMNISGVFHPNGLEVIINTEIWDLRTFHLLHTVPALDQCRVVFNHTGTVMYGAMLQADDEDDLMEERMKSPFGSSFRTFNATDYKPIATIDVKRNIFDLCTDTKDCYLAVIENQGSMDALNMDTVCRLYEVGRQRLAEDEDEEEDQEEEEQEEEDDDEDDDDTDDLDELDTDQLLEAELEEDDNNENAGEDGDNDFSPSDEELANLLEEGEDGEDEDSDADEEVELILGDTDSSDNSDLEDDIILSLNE
WDR5: WD repeat-containing protein 5 (WDR5, Homo sapiens, UniProt P61964)
DCAF1; 92.01 °C — “SYPRO Orange fluorescence”: 30900 a.u.
The “SYPRO Orange fluorescence” was 13500 a.u. (WDR5; 28.6 °C).
It gave 22700 a.u. for “SYPRO Orange fluorescence” (DCAF1; 53.21 °C).
For DCAF1; 30.2 °C: “SYPRO Orange fluorescence” read 8410 a.u.
It gave 21500 a.u. for “SYPRO Orange fluorescence” (DCAF1; 52.61 °C).
For WDR5; 32.8 °C: “SYPRO Orange fluorescence” read 13800 a.u.
DCAF1; 41.8 °C — “SYPRO Orange fluorescence”: 12700 a.u.
For DCAF1; 62.61 °C: “SYPRO Orange fluorescence” read 53600 a.u.
The “SYPRO Orange fluorescence” was 16800 a.u. (WDR5; 51.2 °C).
WDR5; 48.8 °C — “SYPRO Orange fluorescence”: 15800 a.u.
DCAF1; 89.81 °C — “SYPRO Orange fluorescence”: 32500 a.u.

Study 2 — technique: DNA microarray; relative to: untreated cells
Structure (SMILES): COCC1CC2C(CCC3(C)C(O)CCC23)c2ccc(O)cc21 (stereo not shown)
PANC-1; item: GTSE1; concentration not given, lower dose arm — “mRNA level ratio”: 0.821.
It gave 0.828 for “mRNA level ratio” (A549; item: RFC3; 50 µM).
For SK-OV-3; item: OLIG2; concentration not given, lower dose arm: “mRNA level ratio” read 10.2.
A549; item: DNER; 50 µM — “mRNA level ratio”: 23.
For A549; item: IL28A; 50 µM: “mRNA level ratio” read 2.66.
It gave 1.74 for “mRNA level ratio” (A549; item: CALR3; 50 µM).
It gave 0.759 for “mRNA level ratio” (PANC-1; item: ACTA2; concentration not given, higher dose arm).
PANC-1; item: CCL11; concentration not given, lower dose arm — “mRNA level ratio”: 1.
The “mRNA level ratio” was 0.699 (A549; item: MCM4; 50 µM).
For A549; item: IL23R; 100 µM: “mRNA level ratio” read 17.3.
PANC-1; item: TMEM108; concentration not given — “mRNA level ratio”: 3.61.
It gave 0.485 for “mRNA level ratio” (PANC-1; item: MCM10; concentration not given, higher dose arm).
For PANC-1; item: CCL11; concentration not given, higher dose arm: “mRNA level ratio” read 1.
It gave 0.916 for “mRNA level ratio” (SK-OV-3; item: MCM6; concentration not given, lower dose arm).
PANC-1; item: GZMK; concentration not given, lower dose arm — “mRNA level ratio”: 1.

Study 3 — technique: KINOMEscan; notes: unit not given; relative to: DMSO
Compound: Ic1ccc(Nc2nc(NCCc3c[nH]c4ccccc34)nc(N3CCOCC3)n2)cc1
Target: 1-phosphatidylinositol 3-phosphate 5-kinase (PIKFYVE, Homo sapiens, UniProt Q9Y2I7)
Chain of UniProt Q9Y2I7 (whole entry, looked up): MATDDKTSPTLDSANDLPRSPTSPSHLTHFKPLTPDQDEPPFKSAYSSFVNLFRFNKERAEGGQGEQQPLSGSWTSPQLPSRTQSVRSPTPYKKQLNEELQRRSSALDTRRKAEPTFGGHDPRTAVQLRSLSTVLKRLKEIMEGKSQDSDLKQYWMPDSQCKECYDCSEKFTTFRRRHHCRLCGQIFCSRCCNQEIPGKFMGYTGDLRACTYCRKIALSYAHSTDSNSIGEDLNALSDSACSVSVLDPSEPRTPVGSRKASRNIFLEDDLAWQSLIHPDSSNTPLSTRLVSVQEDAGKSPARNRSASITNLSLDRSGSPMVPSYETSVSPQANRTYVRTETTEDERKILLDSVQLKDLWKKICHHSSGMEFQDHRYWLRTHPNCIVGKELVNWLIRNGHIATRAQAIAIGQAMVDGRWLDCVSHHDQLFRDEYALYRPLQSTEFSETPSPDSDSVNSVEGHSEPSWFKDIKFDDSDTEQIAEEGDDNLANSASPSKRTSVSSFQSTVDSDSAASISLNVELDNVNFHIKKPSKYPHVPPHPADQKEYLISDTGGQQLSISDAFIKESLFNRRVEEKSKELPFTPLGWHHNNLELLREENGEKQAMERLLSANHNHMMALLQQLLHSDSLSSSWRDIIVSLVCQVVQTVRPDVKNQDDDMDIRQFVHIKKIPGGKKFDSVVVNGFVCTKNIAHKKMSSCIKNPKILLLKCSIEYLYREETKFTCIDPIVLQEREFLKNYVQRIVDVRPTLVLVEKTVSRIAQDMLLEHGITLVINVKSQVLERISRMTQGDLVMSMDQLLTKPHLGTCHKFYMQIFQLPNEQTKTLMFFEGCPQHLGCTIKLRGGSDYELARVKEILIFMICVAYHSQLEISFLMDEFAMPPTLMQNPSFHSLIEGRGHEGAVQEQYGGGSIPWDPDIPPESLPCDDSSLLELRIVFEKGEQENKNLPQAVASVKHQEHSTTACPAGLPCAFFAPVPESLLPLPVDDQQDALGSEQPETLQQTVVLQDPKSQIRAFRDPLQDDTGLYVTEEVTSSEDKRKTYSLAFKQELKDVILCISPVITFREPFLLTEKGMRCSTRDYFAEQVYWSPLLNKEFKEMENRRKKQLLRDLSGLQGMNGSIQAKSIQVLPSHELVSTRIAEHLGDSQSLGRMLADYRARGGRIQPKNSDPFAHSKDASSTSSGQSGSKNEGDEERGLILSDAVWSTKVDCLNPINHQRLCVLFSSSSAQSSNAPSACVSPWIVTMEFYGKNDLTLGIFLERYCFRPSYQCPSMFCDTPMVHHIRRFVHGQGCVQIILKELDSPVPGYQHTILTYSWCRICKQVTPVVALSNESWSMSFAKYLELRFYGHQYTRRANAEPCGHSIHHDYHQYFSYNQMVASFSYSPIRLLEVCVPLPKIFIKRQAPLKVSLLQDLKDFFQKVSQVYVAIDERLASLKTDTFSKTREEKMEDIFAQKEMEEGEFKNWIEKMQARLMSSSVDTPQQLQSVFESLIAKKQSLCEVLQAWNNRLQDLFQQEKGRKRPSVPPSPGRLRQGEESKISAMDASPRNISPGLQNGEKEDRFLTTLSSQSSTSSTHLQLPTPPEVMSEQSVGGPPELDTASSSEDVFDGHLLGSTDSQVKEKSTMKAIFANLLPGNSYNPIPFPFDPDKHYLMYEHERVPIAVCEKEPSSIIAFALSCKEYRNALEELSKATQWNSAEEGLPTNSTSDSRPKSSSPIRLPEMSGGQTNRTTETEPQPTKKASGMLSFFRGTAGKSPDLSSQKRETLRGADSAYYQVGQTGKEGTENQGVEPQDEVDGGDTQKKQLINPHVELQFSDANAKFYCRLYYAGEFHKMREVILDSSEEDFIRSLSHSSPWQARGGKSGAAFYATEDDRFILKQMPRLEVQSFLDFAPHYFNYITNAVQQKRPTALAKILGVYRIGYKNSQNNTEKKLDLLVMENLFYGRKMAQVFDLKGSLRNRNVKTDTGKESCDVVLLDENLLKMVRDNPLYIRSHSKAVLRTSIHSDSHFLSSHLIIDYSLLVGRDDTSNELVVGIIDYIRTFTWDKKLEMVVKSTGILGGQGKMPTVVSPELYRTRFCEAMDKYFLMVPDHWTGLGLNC
For 0.508 nM: remaining binding read 0.839 and 1.17 and 1.11 and 0.74.
For 370 nM: remaining binding read 0.0277 and 0.0357 and 0.0194 and 0.0705.
For 4.57 nM: remaining binding read 0.747 and 0.758 and 0.599 and 0.576.
3330 nM — remaining binding: 0.0249 and 0.029 and 0.0318 and 0.0198.
It gave 0.146 and 0.121 and 0.0896 and 0.211 for remaining binding (41.2 nM).
10000 nM — remaining binding: 0.035 and 0.0318 and 0.0297 and 0.0281.

Study 4 — SMILES: O=C(Nc1ccccc1)Nc1cccc(Oc2ccc3nccn3n2)c1; concentration: 1 µM
For EPHA3 (Homo sapiens, UniProt P29320); binding, competition with immobilised ligand: remaining binding read 66%.
For PIK3C2B (Homo sapiens, UniProt O00750); binding: remaining binding read 100%.
The remaining binding was 67% (PLK1 (Homo sapiens, UniProt P53350); binding).
The remaining binding was 57% (Ribosomal protein S6 kinase alpha-4, N-terminal kinase domain (RPS6KA4, Homo sapiens, UniProt O75676); binding, competition with immobilised ligand).
It gave 100% for remaining binding (MYLK (Homo sapiens, UniProt Q15746); binding).
The remaining binding was 100% (CAMKK2 (Homo sapiens, UniProt Q96RR4); binding).
For SLK (Homo sapiens, UniProt Q9H2G2); binding, competition with immobilised ligand: remaining binding read 88%.
The remaining binding was 78% (EGFR (Homo sapiens, UniProt P00533, G719C); binding).
It gave 100% for remaining binding (CSNK1E (Homo sapiens, UniProt P49674); binding, competition with immobilised ligand).
The remaining binding was 99% (STK17B (Homo sapiens, UniProt O94768); binding).
It gave 100% for remaining binding (ACVR1B (Homo sapiens, UniProt P36896); binding, competition with immobilised ligand).
It gave 100% for remaining binding (EGFR (Homo sapiens, UniProt P00533, L858R); binding).
The remaining binding was 96% (PRKG1 (Homo sapiens, UniProt Q13976); binding).
It gave 100% for remaining binding (STK25 (Homo sapiens, UniProt O00506); binding, competition with immobilised ligand).
The remaining binding was 92% (Aurora kinase B (AURKB, Homo sapiens, UniProt Q96GD4); binding, competition with immobilised ligand).
SIK3 (Homo sapiens, UniProt Q9Y2K2); cell-free binding — remaining binding: 100%.
It gave 100% for remaining binding (TNNI3K (Homo sapiens, UniProt Q59H18); binding, competition with immobilised ligand).

Some of these lines once more (study 4):
The remaining binding was 57% (Ribosomal protein S6 kinase alpha-4, N-terminal kinase domain (RPS6KA4, Homo sapiens, UniProt O75676); binding, competition with immobilised ligand).
It gave 100% for remaining binding (MYLK (Homo sapiens, UniProt Q15746); binding).
The remaining binding was 100% (CAMKK2 (Homo sapiens, UniProt Q96RR4); binding).
